Published values pooled from the literature.
± marks the error that the study gave. Values after ≈ are worked out from the molar mass of the structure shown.

The MIC of CCCCCCC1c2ccc(O)cc2Oc2cc(O)ccc21 is reported as 7.5 µg/mL (≈ 25.1 µM) (Klebsiella spp.; added: NAB7061 4 µg/mL).
The MIC90 of COCCOc1ccc2nc3ccc(=O)c(Br)c-3oc2c1 is reported as 29 µM (≈ 10.2 µg/mL) (Mycobacterium tuberculosis; mc2 6206 PA-824-resistant ddn mutant; 7 days).
CCc1nc(N)nc(N)c1C#CCc1cc(OC)c(OC)c(-c2ccncc2)c1 gave an MIC of greater than 10 µg/mL (Staphylococcus aureus; MRSA clinical isolate dfrA).
The IC50 of CC#C/C(=N\OC[C@H]1COCCN1)c1ccc2ncnc(Nc3ccc(OCc4cccc(F)c4)c(Cl)c3)c2c1 is reported as 0.0078 ± 0.0014 µM (NCI-N87; cell growth).
Oc1ccc(C2NCCc3c2[nH]c2ccc(Cl)cc32)cc1O (stereo not shown) has an IC50 of no more than 1 µM (dengue virus 2; viral replication, plaque reduction; NGC; bound stated in text).
The GI50 of CCCCCCCCCCCCCC(=S)NCCCC[C@H](NC(=O)OCc1ccccc1)C(=O)Nc1cccc(O)c1 is reported as 6.6 ± 0.3 µM (NCI-H23; cell growth).
CC[C@H](C)[C@@H]1NC(=O)[C@H](CCC(=O)O)NC(=O)[C@@H]2CCCN2C(=O)[C@H](Cc2c[nH]cn2)NC(=O)[C@H](CC(=O)O)NC(=O)[C@H](Cc2ccc(O)cc2)NC(=O)[C@H](CC(N)=O)NC(=O)[C@@H]2CSSC[C@@H]3NC(=O)CNC(=O)CNC(=O)CNC(=O)[C@H](C)NC(=O)[C@H](C)NC(=O)CNC(=O)CNC(=O)[C@H](CSSC[C@H](NC3=O)C(=O)N[C@@H](CO)C(=O)N[C@@H](CC(=O)O)C(=O)N3CCC[C@H]3C(=O)N[C@@H](CCCNC(=N)N)C(=O)N2)NC1=O has an inhibition of 0% (barium current, inhibitor, electrophysiology; 0.2 µM, Cav2.3c alone without GABAB receptor).
With Cc1cc(OCc2nnc(SC3CCCC3)n2-c2cccnc2)ccc1-c1ccc(S(C)(=O)=O)cc1 the CC50 was greater than 100 µM (CCRF-CEM).
For CCCCOc1ccc2nc3ccc(=O)cc-3oc2c1, the MIC90 was 6.7 µM (≈ 1.8 µg/mL) (Mycobacterium tuberculosis; mc2 6206 clofazimine-resistant fbiC mutant; 7 days).
Cc1c(N2CC[C@@H](CN)C2)c(F)cc2c(=O)n(N)c(=O)n(C3CC3)c12 gave a CC3 of 0.18 µM (Staphylococcus aureus topoisomerase IV GrlA S81Y; DNA cleavage).
COc1cc(OC)c2ccccc2c1C=C1C(=O)NC(=S)NC1=O — result for ATP-linked respiration: “decreased” (Ly19; extracellular flux analysis; 4 µM, 24 h).
Cn1c([N+](=O)[O-])cnc1COc1ccc2nc3ccc(=O)cc-3oc2c1 has an MIC90 of greater than 256 µM (Mycobacterium tuberculosis; mc2 6206 bedaquiline-resistant MmpL5 regulator mutant; 7 days).
CSc1nc(Cl)cc(Sc2nnc(-c3cc(C(F)(F)F)cc(C(F)(F)F)c3)[nH]2)n1 gave an MIC of 0.2 µg/mL (≈ 0.424 µM) (Pseudomonas aeruginosa; MDR clinical isolate; added: polymyxin B nonapeptide 3 µg/mL).
O=c1ccc2nc3ccc(OC4CCCC4)cc3oc-2c1 has an MIC90 of 13 µM (≈ 3.66 µg/mL) (Mycobacterium tuberculosis; mc2 6206 bedaquiline-resistant MmpL5 regulator mutant; 7 days).
O=C1C=C(NCCc2cc(Br)c(O)c(Br)c2)C(=O)c2ncccc21 has a median survival of 48.5 days (SCID/Beige mice, MNNG-HOS lung metastasis; dose not given).
The MIC90 of O=c1ccc2nc3ccc(OCC4CCCCC4)cc3oc-2c1 is reported as 83 µM (≈ 25.7 µg/mL) (Mycobacterium tuberculosis; mc2 6206 bedaquiline-resistant MmpL5 regulator mutant; 7 days).
The peak amplitude of CCN(CC)C(=O)Oc1ccc(C(=O)Nc2cccc3cc[nH]c23)cc1 is reported as 55 ± 3% (NMDA receptor EPSC, inhibitor, whole-cell patch clamp; subthalamic nucleus neurons, rat, subthalamic nucleus slices; 10 µM; relative to: control).
The MIC90 of COC(=O)COc1ccc2nc3ccc(=O)cc-3oc2c1 is reported as 46 µM (≈ 13.1 µg/mL) (Mycobacterium tuberculosis; mc2 6206 bedaquiline-resistant MmpL5 regulator mutant; 7 days).
For C(CCCCCN1COOC2(CCCC2)OOC2(CCCC2)OOC1)CCCCN1COOC2(CCCC2)OOC2(CCCC2)OOC1, the IC50 was 3.02 ± 0.13 µM (U-937; cytotoxicity, 7-AAD flow cytometry).
